Results pooled from the literature.
Every numbered part comes from another study and shows a few of its results, in no order. Several values in a cell are separate wells, animals, samples, runs or records.

Set 1
Compound: O=C(Nc1cccnn1)N1CC(CC=Cc2cncc(Oc3ccc(C(F)(F)F)cn3)n2)C1
Tested at: 1 µM
Quantity: viability
cell line = sample C colorectal tumour organoid; setting = replicate 1; scale = reference: DMSO; value = 96.2%
cell line = sample C colorectal tumour organoid; setting = replicate 2; scale = reference: DMSO; value = 103%
cell line = sample BA colorectal tumour organoid; scale = reference: DMSO; value = 94.2%
cell line = sample B colorectal tumour organoid; setting = replicate 1; scale = reference: DMSO; value = 123%
cell line = sample B colorectal tumour organoid; setting = replicate 2; scale = reference: DMSO; value = 118%
cell line = sample I colorectal tumour organoid; setting = replicate 1; scale = reference: DMSO; value = 102%
cell line = colorectal tumour organoids; scale = reference: DMSO; value = 107%
cell line = sample I colorectal tumour organoid; setting = replicate 2; scale = reference: DMSO; value = 125%
cell line = sample D normal epithelium organoids; system = human patient-derived organoids; scale = reference: DMSO control; value = 106% and 94.6%

Set 2
Organism: Sarcocystis neurona
Read-out: parasite growth
Tested at: 10 µM
Notes: secondary screen
Quantity: inhibition
SMILES = CCC1(c2ccccc2)C(=O)NCNC1=O; value = -28.5%
SMILES = N#Cc1ccc(C(c2ccc(C#N)cc2)n2cncn2)cc1; value = -40.1%
SMILES = O=c1n(CCCN2CCN(c3cccc(Cl)c3)CC2)nc2ccccn12; value = -54%
SMILES = CCc1c(C)[nH]c2c1C(=O)C(CN1CCOCC1)CC2 (centres unmarked); value = -35.7%
SMILES = COc1ccc(/C=C/C(=O)Nc2ccccc2C(=O)O)cc1OC; value = 32.1%
SMILES = CN1CCN(C2=Nc3cc(Cl)ccc3Nc3ccccc32)CC1; value = -48.5%
SMILES = Oc1c(Cl)cc(Cl)c2cccnc12; value = 95.9%
SMILES = S=c1[nH]cnc2nc[nH]c12; value = -11.6%
SMILES = O=c1ncc(F)c[nH]1; value = -0.642%

Set 3
Target: Cyclin-dependent kinase 1, with cyclin B (CDK1, Homo sapiens, UniProt P06493)
Sequence of UniProt P06493 (whole entry, looked up): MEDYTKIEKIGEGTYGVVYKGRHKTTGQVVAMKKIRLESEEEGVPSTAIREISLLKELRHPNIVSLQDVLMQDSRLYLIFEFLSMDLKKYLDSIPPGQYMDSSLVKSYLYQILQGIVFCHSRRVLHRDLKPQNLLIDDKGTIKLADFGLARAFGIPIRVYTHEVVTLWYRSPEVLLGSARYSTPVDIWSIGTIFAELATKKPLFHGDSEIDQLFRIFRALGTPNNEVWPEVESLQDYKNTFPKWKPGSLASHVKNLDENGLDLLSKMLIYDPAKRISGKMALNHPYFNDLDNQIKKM
Read-out: enzyme activity
Mode: inhibitor
Tested at: 0.5 µM
Reference: control
Quantity: remaining activity
Structure (SMILES) = N#Cc1c(NC(=O)c2cccc3ccccc23)sc2c1CCCC2; value = 111%
Structure (SMILES) = O=C(NC(NC(=S)Nc1ccc(F)c([N+](=O)[O-])c1)C(Cl)(Cl)Cl)C(c1ccccc1)c1ccccc1 (centres unmarked); value = 92.1%
Structure (SMILES) = O=C1C(Cl)=C(N2C(=O)CCC2=O)C(=O)c2ccccc21; value = 118%
Structure (SMILES) = O=c1cc(-c2cccc3c2Sc2ccccc2S3)oc(N2CCOCC2)c1; value = 88.5%
Structure (SMILES) = CCN(CC)C(=O)c1ccc(Nc2nc(OCC3CCCCC3)c3[nH]cnc3n2)cc1; value = 62.4%
Structure (SMILES) = Ic1cccc(CSc2nnc(-c3ccncc3)o2)c1; value = 92%
Structure (SMILES) = COc1cc2ncnc(Nc3ccc(O)c(Br)c3)c2cc1OC; value = 81.3%
Structure (SMILES) = COc1cc2c(cc1OC)-c1[nH]nc(Nc3cccc(F)c3)c1C2; value = 101%
Structure (SMILES) = Nc1cccc(-c2cc3c(Oc4cccc(O)c4)ncnc3[nH]2)c1; value = 98.9%
Structure (SMILES) = Cc1nc2cc3nc(-c4cccs4)cnc3cc2n1C; value = 96.7%
Structure (SMILES) = CCN(CC)CCNC(=O)c1c(C)[nH]c(/C=C2\C(=O)Nc3ccc(F)cc32)c1C; value = 103%
Structure (SMILES) = Cc1cn(-c2cc(NC(=O)c3ccc(C)c(Nc4nccc(-c5cccnc5)n4)c3)cc(C(F)(F)F)c2)cn1; value = 97.8%
Structure (SMILES) = CCN(CC)CCNC(=O)c1c(C)[nH]c(/C=C2\C(=O)Nc3ccc(Cl)cc32)c1C; value = 109%
Structure (SMILES) = C[C@@H]1CCN(C(=O)CC#N)C[C@@H]1N(C)c1ncnc2[nH]ccc12; value = 90.8%
Structure (SMILES) = N#C/C(=C\c1ccc(O)c(O)c1)C(=O)NCc1ccccc1; value = 96.9%
Structure (SMILES) = COc1cc2ncnc(Nc3cccc(Cl)c3)c2cc1OC; value = 90.3%
Structure (SMILES) = Cc1cc2ncc(-c3ccccc3)nc2cc1C; value = 108%
Structure (SMILES) = CN(C)C[C@H]1CCn2c(c(C3=C(c4cn(C)c5ccccc45)C(=O)NC3=O)c3ccccc32)C1; value = 53.7%
Structure (SMILES) = c1ccc(-c2[nH]ncc2-c2ccnc3ccccc23)nc1; value = 106%
Structure (SMILES) = CN([C@@H](Cc1ccc(OS(=O)(=O)c2cccc3cnccc23)cc1)C(=O)N1CCN(c2ccccc2)CC1)S(=O)(=O)c1cccc2cnccc12; value = 108%
Structure (SMILES) = CCOc1nc(NC(=O)Cc2cc(OC)ccc2OC)cc(N)c1C#N; value = 108%
Structure (SMILES) = c1ccc(-c2cnc(Nc3ccc(OCCN4CCCC4)cc3)s2)cc1; value = 85.1%
Structure (SMILES) = O=C1c2ccccc2-c2n[nH]c3cccc1c23; value = 63.4%

Set 4
Host: human
Sample: microsomes or S9
Tested at: 2 µM
Time: 0.5 h
Quantity: remaining compound
Structure (SMILES) = COc1ccc(-c2ncnc3nc4n(c23)CCC4)cc1; value = 71.6%
Structure (SMILES) = O=C(CC1c2ccccc2Oc2ccccc21)N1CCCC1c1nc(-c2ccncc2)n[nH]1 (centres unmarked); value = 84.7%
Structure (SMILES) = CCn1c(N)c(-c2nc3ccccc3[nH]2)c(=O)c2ccccc21; value = 85.5%
Structure (SMILES) = CCc1nn(CC(=O)N2CCC(N3CCCCC3)CC2)c(=O)c2cc3sccc3n12; value = 89.5%
Structure (SMILES) = COc1ccc(NC(=O)N2CCC3(C2)C(=O)Nc2ccccc23)c(OC)c1 (centres unmarked); value = 77.1%
Structure (SMILES) = Clc1ccc(-c2noc(-c3ccc(Nc4ccc5c(c4)OCCO5)nn3)n2)cc1; value = 70.7%
Structure (SMILES) = Cc1cnc(-c2nc(NCCc3ccncc3)ncc2-c2onc(C)c2C)cn1; value = 68%
Structure (SMILES) = Cc1cc(N(CC(=O)N2CCC(C(N)=O)CC2)S(C)(=O)=O)ccc1Br; value = 84.9%
Structure (SMILES) = CCOc1cc(=O)n2c(c1C(=O)NC1CCc3ccccc31)CCCCC2 (centres unmarked); value = 24.4%
Structure (SMILES) = Cc1ccc(-c2ccc(-n3nc(C)c(S(=O)(=O)Nc4ccc5c(c4)OCCO5)c3C)nn2)cc1; value = 43.9%
Structure (SMILES) = Oc1cccc(-c2cn(Cc3ccc4sccc4c3)nn2)c1; value = 22.4%
Structure (SMILES) = CC(C)(C)OC(=O)N1CCCC1C(=O)NC(CC1=NOC(C(N)=O)C1)c1ccccc1 (centres unmarked); value = 95.6%

Some of these lines once more (set 4):
Structure (SMILES) = Cc1ccc(-c2ccc(-n3nc(C)c(S(=O)(=O)Nc4ccc5c(c4)OCCO5)c3C)nn2)cc1; value = 43.9%
Structure (SMILES) = O=C(CC1c2ccccc2Oc2ccccc21)N1CCCC1c1nc(-c2ccncc2)n[nH]1 (centres unmarked); value = 84.7%
Structure (SMILES) = CCOc1cc(=O)n2c(c1C(=O)NC1CCc3ccccc31)CCCCC2 (centres unmarked); value = 24.4%
Structure (SMILES) = Oc1cccc(-c2cn(Cc3ccc4sccc4c3)nn2)c1; value = 22.4%
